Assay results gathered from unrelated publications.
Each line is one published result; not all experiments were run side by side. “And” joins repeats or separate records; there may be more than shown. Numbers after ± are the reported error.
Target: Voltage-gated inwardly rectifying potassium channel KCNH2 (KCNH2, Homo sapiens, UniProt Q12809)
Chain of UniProt Q12809 (whole entry, looked up): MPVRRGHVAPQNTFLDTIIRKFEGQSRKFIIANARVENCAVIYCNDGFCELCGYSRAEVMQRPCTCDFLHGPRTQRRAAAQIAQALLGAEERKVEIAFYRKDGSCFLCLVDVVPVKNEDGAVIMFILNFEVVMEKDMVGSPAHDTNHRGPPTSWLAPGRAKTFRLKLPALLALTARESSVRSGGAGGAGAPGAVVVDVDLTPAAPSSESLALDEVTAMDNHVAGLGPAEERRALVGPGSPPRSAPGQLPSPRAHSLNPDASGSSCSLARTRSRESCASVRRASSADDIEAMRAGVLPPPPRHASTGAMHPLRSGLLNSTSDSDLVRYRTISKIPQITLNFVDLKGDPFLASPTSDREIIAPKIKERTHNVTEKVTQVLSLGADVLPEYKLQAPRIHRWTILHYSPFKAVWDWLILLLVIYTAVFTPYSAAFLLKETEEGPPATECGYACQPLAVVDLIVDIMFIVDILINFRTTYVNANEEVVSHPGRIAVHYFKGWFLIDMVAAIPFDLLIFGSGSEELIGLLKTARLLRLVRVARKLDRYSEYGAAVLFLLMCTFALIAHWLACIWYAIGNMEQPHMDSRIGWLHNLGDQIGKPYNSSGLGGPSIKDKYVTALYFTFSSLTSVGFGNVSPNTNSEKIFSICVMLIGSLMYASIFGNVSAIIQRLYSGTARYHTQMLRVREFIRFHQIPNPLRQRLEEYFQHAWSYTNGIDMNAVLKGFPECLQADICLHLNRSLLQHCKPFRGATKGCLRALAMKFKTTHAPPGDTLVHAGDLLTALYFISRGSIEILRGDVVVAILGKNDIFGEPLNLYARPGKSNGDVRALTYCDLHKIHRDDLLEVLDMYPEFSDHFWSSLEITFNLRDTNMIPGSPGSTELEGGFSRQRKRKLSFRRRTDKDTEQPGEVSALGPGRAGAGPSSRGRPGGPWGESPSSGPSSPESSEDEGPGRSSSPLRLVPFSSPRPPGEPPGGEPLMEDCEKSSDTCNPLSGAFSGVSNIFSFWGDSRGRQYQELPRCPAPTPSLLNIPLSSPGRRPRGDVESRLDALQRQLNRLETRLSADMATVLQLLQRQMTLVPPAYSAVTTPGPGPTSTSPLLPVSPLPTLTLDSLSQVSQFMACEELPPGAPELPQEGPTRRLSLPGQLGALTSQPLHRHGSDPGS

SMILES = C[C@H]1C[C@@H](N2C(=N)N[C@](C)(c3cccc(NC(=O)c4cccc(C#N)c4)c3Cl)CC2=O)CCO1; assay = potassium current, inhibitor; setting = pH 7.4; IC50 = 32.5 µM
SMILES = COc1ccn2c(Nc3ccccc3F)c(-c3ccncn3)nc2c1; assay = ion current, blocker; IC50 = > 101 µM
SMILES = COc1ccc2cc3[n+](cc2c1OC)CCc1cc2c(cc1-3)OCO2; setting = 1 h, pH 7.4; IC50 = 5.58 ± 1.41 µM
SMILES = COc1ccc(Cc2nc(NC(=O)C34CC5CC(CC(C5)C3)C4)n(C)c2Cc2ccc(OC)c(OC)c2)cc1; IC50 = 22.9 µM
SMILES = COc1ccc2c(c1)CN(C(=O)CCN1CCC(Cc3ccccc3)CC1)CC[S@@+]2[O-]; assay = IKr current, inhibitor; IC50 = 0.43 µM
SMILES = Cc1ccc2c(c1)nc(/C=C/c1cccc3cccnc13)n2-c1cccc(OCCCN2CCN(C)CC2)c1; assay = tail current; IC50 = 4.52 µM
SMILES = CC1(F)CN(C(=O)Cn2c(=O)c(C(=O)NCc3ccc(Cl)cc3)cc3nccnc32)C1; assay = potassium current, inhibitor, automated patch clamp; test system = CHO cells expressing hERG; IC50 = 5.9 µM
SMILES = COc1ccc2c(Cc3ccccc3F)c3[n+](cc2c1OC)CCc1cc2c(cc1-3)OCO2; setting = 1 h, pH 7.4; IC50 = 1.57 ± 0.55 µM
SMILES = O=c1c2c([nH]c3cc(Oc4ccc(OC(F)(F)F)cc4)c(F)cc13)CCCC2; assay = ion current, inhibitor; IC50 = > 100 µM
SMILES = CC1(F)CN(C(=O)Cn2c(=O)c(C(=O)NCc3ccc(Cl)cc3)cc3nc(N4CCNC4=O)cnc32)C1; assay = ion current, automated patch clamp; test system = CHO expressing hERG; IC50 = 38 µM and > 30 µM
SMILES = COc1cccc(CCc2cc(O)c(=O)[nH]n2)c1; IC50 = > 10 µM

A few entries again:
SMILES = C[C@H]1C[C@@H](N2C(=N)N[C@](C)(c3cccc(NC(=O)c4cccc(C#N)c4)c3Cl)CC2=O)CCO1; assay = potassium current, inhibitor; setting = pH 7.4; IC50 = 32.5 µM
